{"data": "Experimental data gathered from unrelated publications", "note": "Protocols differ between the studies behind these lines. ± marks the error that the study gave."}
{"Structure (SMILES)": "N=C(N)NCCC[C@H](NC(=O)[C@H](Cc1c[nH]c2ccccc12)NC(=O)[C@H](CCC(N)=O)NC(=O)[C@H](Cc1c[nH]c2ccccc12)NC(=O)[C@H](CCCNC(=N)N)NC(=O)[C@H](CCCNC(=N)N)NC(=O)CCCCCNC(=O)/C=C/c1ccc(O)c(O)c1)C(N)=O", "test": "RP-HPLC, C18 column", "scale": "higher is more hydrophobic", "measurement": "retention time", "result": "5.1 min"}
{"Structure (SMILES)": "CN1C(=O)[C@@H](Cc2ccc(O)cc2)NC(=O)CNC(=O)[C@H](Cc2ccc3ccccc3c2)NC(=O)[C@H](CCCNC(=N)N)NC(=O)[C@H]1CCCNC(=O)c1ccc(CNC(=O)CN2CCN(CC(=O)O)CCN(CC(=O)O)CCN(CC(=O)O)CC2)cc1 [gallium-68 labelled]", "test system": "adult reference man, from C57BL/6 mice data", "setting": "150 MBq", "measurement": "effective dose", "result": "1.65 ± 0.06 mSv"}
{"Structure (SMILES)": "CC(C)C[C@H](NC(=O)[C@H](CC(C)C)NC(=O)[C@H](CCCNC(=N)N)NC(=O)[C@H](CCCNC(=N)N)NC(=O)[C@H](CC(C)C)NC(=O)[C@H](CC(C)C)NC(=O)[C@H](CCCNC(=N)N)NC(=O)CCCCCNC(=O)/C=C/c1ccc(O)c(O)c1)C(=O)N[C@@H](CCCNC(=N)N)C(N)=O", "test": "RP-HPLC, C18 column", "scale": "higher is more hydrophobic", "measurement": "retention time", "result": "6.4 min"}
{"Structure (SMILES)": "CCCC[C@H](NC(=O)CCCCCCCNC(=O)CN1CCN(CC(=O)O)CCN(CC(=O)O)CC1)C(=O)N[C@H]1CC(=O)NCCCC[C@@H](C(N)=O)NC(=O)[C@H](Cc2c[nH]c3ccccc23)NC(=O)[C@H](CCCNC(=N)N)NC(=O)[C@@H](Cc2ccccc2)NC(=O)[C@H](Cc2c[nH]cn2)NC1=O [copper-64 labelled]", "test system": "C57 mice, bone", "setting": "intravenous, 0.37 MBq, 24 h", "measurement": "tissue uptake", "result": "0.08 ± 0.14 %ID/g"}
{"Structure (SMILES)": "C=C1CC[C@H](OCCCNC(=O)CCOCCOCCOCCOCCOCCOCCOCCOCCOCCOCCOCCOCCOCCOCCOCCOCCOCCOCCOCCOCCOCCOCCOCCOCCOCCOCCOCCOCCOCCOCCOCCOCCOCCOCCOCCOCCNC(=O)CCN2C(=O)CC(SC[C@H](NC(=O)[C@H](Cc3ccccc3)NC(=O)[C@H](CC(N)=O)NC(=O)[C@H](Cc3c[nH]cn3)NC(=O)[C@@H](NC(=O)[C@H](CC(=O)O)NC(=O)[C@H](CCC(N)=O)NC(=O)[C@H](CC(C)C)NC(=O)[C@H](CCCCN)NC(=O)[C@H](CCCCN)NC(=O)[C@H](CCCNC(=N)N)NC(=O)[C@H](CC(C)C)NC(=O)[C@H](Cc3c[nH]c4ccccc34)NC(=O)[C@H](CCC(=O)O)NC(=O)[C@@H](NC(=O)[C@H](CCCNC(=N)N)NC(=O)[C@H](CCC(=O)O)NC(=O)[C@H](CCSC)NC(=O)[C@H](CO)NC(=O)[C@H](CC(N)=O)NC(=O)[C@H](CC(C)C)NC(=O)[C@H](Cc3c[nH]cn3)NC(=O)[C@H](CCCCN)NC(=O)CNC(=O)[C@H](CC(C)C)NC(=O)[C@H](CC(N)=O)NC(=O)[C@H](Cc3c[nH]cn3)NC(=O)[C@H](CCSC)NC(=O)[C@H](CC(C)C)NC(=O)[C@H](CCC(N)=O)NC(=O)[C@@H](NC(=O)[C@H](CCC(=O)O)NC(=O)[C@H](CO)NC(=O)[C@@H](NC(=O)[C@@H](N)CO)C(C)C)[C@@H](C)CC)C(C)C)C(C)C)C(N)=O)C2=O)C/C1=C/C=C1\\CCC[C@]2(C)[C@@H]([C@H](C)CCCC(C)(C)O)CC[C@@H]12 (stereo partly drawn)", "test system": "Sprague Dawley rat", "setting": "subcutaneous, 70 µg/kg daily, 21 days", "scale": "relative to: 1 µg/kg dose", "measurement": "dose-normalized AUC", "result": 0.96}
{"Structure (SMILES)": "CCCC[C@H](NC(=O)COCCOCCNC(=O)CN1CCN(CC(=O)O)CCN(CC(=O)O)CC1)C(=O)N[C@H]1CC(=O)NCCCC[C@@H](C(N)=O)NC(=O)[C@H](Cc2c[nH]c3ccccc23)NC(=O)[C@H](CCCNC(=N)N)NC(=O)[C@@H](Cc2ccccc2)NC(=O)[C@H](Cc2c[nH]cn2)NC1=O [copper-64 labelled]", "test system": "C57 mice, bone", "setting": "intravenous, 0.37 MBq, 2 h", "measurement": "tissue uptake", "result": "0.22 ± 0.07 %ID/g"}
{"Structure (SMILES)": "N=C(N)NCCC[C@@H]1NC(=O)[C@H](CCCCNC(=O)CC[C@H](NC(=O)CC[C@H](NC(=O)CN2CCN(CC(=O)O)CCN(CC(=O)O)CCN(CC(=O)O)CC2)C(=O)N[C@@H](CCC(=O)NCCCC[C@@H]2NC(=O)[C@@H](Cc3ccccc3)NC(=O)[C@H](CC(=O)O)NC(=O)CNC(=O)[C@H](CCCNC(=N)N)NC2=O)C(=O)NCCCC[C@@H]2NC(=O)[C@@H](Cc3ccccc3)NC(=O)[C@H](CC(=O)O)NC(=O)CNC(=O)[C@H](CCCNC(=N)N)NC2=O)C(=O)NCCCC[C@@H]2NC(=O)[C@@H](Cc3ccccc3)NC(=O)[C@H](CC(=O)O)NC(=O)CNC(=O)[C@H](CCCNC(=N)N)NC2=O)NC(=O)[C@@H](Cc2ccccc2)NC(=O)[C@H](CC(=O)O)NC(=O)CNC1=O [indium-111 labelled]", "test system": "female athymic nu/nu mice, lungs", "setting": "intravenous, 24 h", "measurement": "tissue uptake", "result": "1.5 ± 0.39 %ID/g"}
{"Structure (SMILES)": "CC(C)C[C@H](NC(=O)C[C@H](O)[C@H](CC(C)C)NC(=O)[C@H](Cc1c[nH]cn1)NC(=O)CNC(=O)[C@@H](NC(=O)[C@H](C)NC(=O)[C@H](Cc1c[nH]c2ccccc12)NC(=O)[C@H](CCC(N)=O)NC(=O)[C@@H](Cc1ccccc1)NC(=O)CCOCCOCCOCCNC(=O)CN1CCN(CC(=O)O)CCN(CC(=O)O)CC1)C(C)C)C(N)=O [gallium-68 labelled]", "test": "microPET imaging", "test system": "mouse PC-3 xenograft, PC-3 tumour", "setting": "intravenous, 3.7 MBq, 30 min", "measurement": "maximum tumour uptake", "result": "4.79 ± 0.98 %ID/g"}
{"Structure (SMILES)": "CCCC[C@H](NC(=O)CNC(=O)CNC(=O)CN1CCN(CC(=O)O)CCN(CC(=O)O)CCN(CC(=O)O)CC1)C(=O)N[C@H]1CC(=O)NCCCC[C@@H](C(N)=O)NC(=O)[C@H](Cc2c[nH]c3ccccc23)NC(=O)[C@H](CCCNC(=N)N)NC(=O)[C@@H](Cc2ccccc2)NC(=O)[C@H](Cc2c[nH]cn2)NC1=O [lutetium-177 labelled]", "test system": "C57 mouse, female, whole blood", "setting": "intravenous, 0.037 MBq, 2 h", "measurement": "tissue uptake", "result": "0.22 ± 0.14 %ID/g"}
{"note": "Excerpt of the above:"}
{"Structure (SMILES)": "N=C(N)NCCC[C@H](NC(=O)[C@H](Cc1c[nH]c2ccccc12)NC(=O)[C@H](CCC(N)=O)NC(=O)[C@H](Cc1c[nH]c2ccccc12)NC(=O)[C@H](CCCNC(=N)N)NC(=O)[C@H](CCCNC(=N)N)NC(=O)CCCCCNC(=O)/C=C/c1ccc(O)c(O)c1)C(N)=O", "test": "RP-HPLC, C18 column", "scale": "higher is more hydrophobic", "measurement": "retention time", "result": "5.1 min"}
